Measured values from different studies.
A part holds a random share of what one study measured. Positions count from the first letter of the parent shown.

Sample 1 — method: protein-binding microarray; molecule type: double-stranded DNA, one strand shown; sample: in vitro; tested at: not given; direction: higher = stronger binding
Target: Transcriptional repressor CTCF (CTCF, Homo sapiens, UniProt P49711, residues 1-727, full length assumed)
Chain of UniProt P49711 (whole entry, looked up): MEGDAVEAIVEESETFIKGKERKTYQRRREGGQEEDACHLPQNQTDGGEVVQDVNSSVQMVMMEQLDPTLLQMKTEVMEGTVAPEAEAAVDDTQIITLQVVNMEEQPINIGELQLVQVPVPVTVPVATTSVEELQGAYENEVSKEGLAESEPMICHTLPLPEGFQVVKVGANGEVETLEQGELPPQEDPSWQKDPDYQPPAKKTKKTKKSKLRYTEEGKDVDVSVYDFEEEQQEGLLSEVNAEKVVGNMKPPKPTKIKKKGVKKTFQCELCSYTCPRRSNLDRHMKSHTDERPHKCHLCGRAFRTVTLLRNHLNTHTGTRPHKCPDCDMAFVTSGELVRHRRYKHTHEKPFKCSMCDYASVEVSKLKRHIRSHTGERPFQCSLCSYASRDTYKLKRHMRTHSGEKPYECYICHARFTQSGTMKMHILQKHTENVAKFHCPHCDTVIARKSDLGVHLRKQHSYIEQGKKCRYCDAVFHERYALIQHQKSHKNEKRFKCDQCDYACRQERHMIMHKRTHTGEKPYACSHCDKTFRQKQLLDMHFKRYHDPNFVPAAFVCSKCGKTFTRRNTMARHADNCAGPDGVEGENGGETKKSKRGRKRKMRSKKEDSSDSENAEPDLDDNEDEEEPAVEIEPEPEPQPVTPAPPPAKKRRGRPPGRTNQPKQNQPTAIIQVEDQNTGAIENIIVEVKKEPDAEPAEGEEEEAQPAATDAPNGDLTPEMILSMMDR
Notes: k-mer, scored over probes, only values ≥0.25
Strand | E-score
CAGTGCGC | 0.255
GCGCTAAC | 0.256
AAAATGGA | 0.273
ATGCGCAA | 0.42
ACCTAGTG | 0.323
ACAAATAC | 0.274
AGTACTAC | 0.251
ATAGTTGC | 0.287

Sample 2 — target: CEBPB, bZIP domain (human); method: DHFR protein complementation; sample: yeast; relative to: wild-type JUN-FOS pair; direction: higher = stronger binding
Notes: single substitutions, most at no-binding floor
Starting sequence: JUN, bZIP domain (human); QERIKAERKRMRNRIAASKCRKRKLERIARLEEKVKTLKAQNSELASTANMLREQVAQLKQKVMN; partner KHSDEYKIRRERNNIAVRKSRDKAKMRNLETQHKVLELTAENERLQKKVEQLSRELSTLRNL
Variant | binding fitness [natural log]
A49P | -1.52
I28A | -1.09
T48I | -1.39
A40L | -1.41
E33S | -1.4
E32M | -1.4
Q55T | -1.39
L31Y | -1.4

Sample 3 — method: protein-binding microarray; molecule type: double-stranded DNA, one strand shown; sample: in vitro; tested at: 2200 nM top; notes: 60-bp whole probe; together with: salmon DNA 0.4 mg/ml; relative to: random background probes; direction: higher = stronger binding; all sequences stand within: GCCTAGCAC … GTCTTGATTCGCTTGACGCTGCTG
Target: Interferon regulatory factor 7, full length, phosphomimetic (IRF7, Homo sapiens, UniProt Q92985, residues 1-503, S471D/S472D/S475D/S476D/S477D/S483D/S484D/S487D)
Residues (chain): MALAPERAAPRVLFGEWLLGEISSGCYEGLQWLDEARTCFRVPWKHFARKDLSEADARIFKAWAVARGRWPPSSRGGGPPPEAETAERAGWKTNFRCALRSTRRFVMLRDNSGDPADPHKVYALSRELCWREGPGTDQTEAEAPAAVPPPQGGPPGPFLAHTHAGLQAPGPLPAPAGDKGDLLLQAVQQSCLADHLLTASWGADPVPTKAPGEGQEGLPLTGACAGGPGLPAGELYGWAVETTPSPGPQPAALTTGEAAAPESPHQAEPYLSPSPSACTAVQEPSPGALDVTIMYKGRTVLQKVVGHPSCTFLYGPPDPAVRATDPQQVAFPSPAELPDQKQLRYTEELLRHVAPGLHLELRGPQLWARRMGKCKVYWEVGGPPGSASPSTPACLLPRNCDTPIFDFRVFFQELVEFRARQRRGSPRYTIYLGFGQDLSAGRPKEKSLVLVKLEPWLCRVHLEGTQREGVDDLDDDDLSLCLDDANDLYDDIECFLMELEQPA
Strand | fitted relative affinity [z-score]
TCAAGTTTTCCTCTGTCACTGTGCTAG | 1.87
TCAATTTTGCTTTCATTACTGTGCTAG | 3.12
TCATTTTTTTCTAACTAACTGTGCTAG | 1.17
GACGATATGAGTCTCGAGACGTGCTAG | 0.39
TTAGAACTCGGGTTTCGATTAGTGCTA | 2.68
GACGGTATCGATATCGGGACGTGCTAG | 0.645
TTACGTATCGACACTGGGTTAGTGCTA | 1.46
TCTTCTGGTGTGTCTGAAGAGTGCTAG | 0.828

Single results of other studies
Structure (SMILES) | target | assay | conditions | scale | quantity | value
CN(C)CCCn1cc(C2=C(c3c[nH]c4ccccc34)C(=O)NC2=O)c2ccccc21 | Epidermal growth factor receptor (EGFR, Homo sapiens, UniProt P00533) | enzyme activity, inhibitor | 0.5 µM | relative to: control | remaining activity | 94%

Excerpt of the above (sample 2):
Variant | binding fitness [natural log]
A40L | -1.41
E33S | -1.4
E32M | -1.4
Q55T | -1.39
